Literature values that unrelated publications cite.
Each line is one published result; not all experiments were run side by side. Numbers after ± are the reported error.

| SMILES | tested on | assay | test system | setting | measurement | result |
| --- | --- | --- | --- | --- | --- | --- |
| CCN(C)C(=O)Oc1cccc([C@H](C)N(C)C)c1 |  |  | dog |  | fraction unbound | 0.487 |
| Cc1nnc2n1-c1ccc(Cl)cc1C(c1ccccc1Cl)=NC2 | CYP3A4 | substrate, item: 1-hydroxy metabolite formation |  |  | Km | 18.2 µM |
| N.O=C(O)C(F)(F)C(F)(F)C(F)(F)C(F)(F)C(F)(F)C(F)(F)C(F)(F)F | CYP3A4 | inhibitor |  | Tox21 screening | IC50 | inactive |
| CCCCCOc1ccc(-c2ccc(-c3ccc(C(=O)N[C@H]4C[C@@H](O)[C@@H](O)NC(=O)[C@@H]5[C@@H](O)[C@@H](C)CN5C(=O)[C@H]([C@@H](C)O)NC(=O)[C@H]([C@H](O)[C@@H](O)c5ccc(O)cc5)NC(=O)[C@@H]5C[C@@H](O)CN5C(=O)[C@H]([C@@H](C)O)NC4=O)cc3)cc2)cc1 |  |  | mild hepatic impairment patients | 50 mg single dose | AUC(0-inf) | 56000 ± 11700 ng·h/mL |
| CN1CCCC(n2nc(Cc3ccc(Cl)cc3)c3ccccc3c2=O)CC1 (stereo not drawn) |  |  | mouse |  | fraction unbound | 0.012 |
| O=C(O)C(F)(F)C(F)(F)C(F)(F)C(F)(F)C(F)(F)C(F)(F)C(F)(F)C(F)(F)C(F)(F)F | CYP1A2 | inhibitor |  | Tox21 screening | IC50 | inactive |
| CCCCN1CCCCC1C(=O)Nc1c(C)cccc1C (stereo not drawn) |  |  | mouse |  | fraction unbound | 0.274 |
| O=C(O)[C@H](c1ccccc1)[C@H]1CCCCN1 |  |  | human, by CES1 genotype, plasma | oral, 10 mg methylphenidate, single dose, median | half-life | 8 h |
| O=S(=O)(O)C(F)(F)C(F)(F)C(F)(F)C(F)(F)C(F)(F)C(F)(F)C(F)(F)C(F)(F)F | CYP2D6 | inhibitor |  | Tox21 screening | IC50 | 33.6 ± 1.93 µM |
| CCN(CC)C(=O)/C(C#N)=C/c1cc(O)c(O)c([N+](=O)[O-])c1 |  |  | dog |  | fraction unbound | 0.02 |
| c1ccc2c(c1)Cc1ccccc1-2 |  |  | fish | dose not given, experimental mean | bioconcentration factor | 468 L/kg |
| O=C(O)C(F)(F)C(F)(F)C(F)(F)C(F)(F)C(F)(F)F | CYP1A2 | inhibitor |  | Tox21 screening | IC50 | inactive |

Some of these lines once more:
| SMILES | tested on | assay | test system | setting | measurement | result |
| --- | --- | --- | --- | --- | --- | --- |
| CCCCN1CCCCC1C(=O)Nc1c(C)cccc1C (stereo not drawn) |  |  | mouse |  | fraction unbound | 0.274 |
